Experimental data pooled from the literature.
Compare with care: the assays were run in different laboratories. No end group written: not given here.
T1: NR1I2/NCOA1 PXR LBD , SRC-1 140-434 (Homo sapiens); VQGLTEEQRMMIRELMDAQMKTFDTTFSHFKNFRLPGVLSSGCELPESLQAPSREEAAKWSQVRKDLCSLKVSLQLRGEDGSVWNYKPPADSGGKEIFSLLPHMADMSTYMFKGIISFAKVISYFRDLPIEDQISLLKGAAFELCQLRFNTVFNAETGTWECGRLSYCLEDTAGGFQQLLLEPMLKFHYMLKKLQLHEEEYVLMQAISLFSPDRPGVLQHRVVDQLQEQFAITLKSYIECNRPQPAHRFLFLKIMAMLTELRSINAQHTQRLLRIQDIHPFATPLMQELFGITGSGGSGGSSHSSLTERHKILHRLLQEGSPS
B1: FANCI (Gallus gallus, UniProt B0I564); sequence looked up; chain MAQRILQLAAEGSPERLQEALQGLTEGELGDMVTRQALRGRETAALLKGIFKGSPCSQQSGVLRRLQVYKHCVSLVESGDLHVGKVSEIIGLLMLEARQLPGHALAELATLFVEVIKRGSLSNGKSLELFSTVLTALSNSKESLAYGKGELNGEEFKKQLINTLCSSKWDPQCVIHLANMFRDIPLSGEELQFVVEKVLRMFSKLDLQEIPPLVYQLLLLSAKGSKKTVLEGIISFFNQLDKRQKEEQRVPQSADLEVATVPLDQLRHVEGTVILHIVSAINLDQDIGEELIKHLKTEQQKDPGKALCPFSVSLLLSTAVKHRLQEQIFDFLKTSITRSCKDLQILQASKFLQDLCPQQYDVTAVILEVVKNSAFGWDHVTQGLVDLGFSLMESYEPKKSFGGKAAETNLGLSKMPAQQACKLGASILLETFKVHEPIRSDILEQVLNRVLTKAASPVSHFIDLLSNIVVSAPLVLQNSSSRVTETFDNLSFLPIDTVQGLLRAVQPLLKVSMSVRDSLILVLQKAIFSRQLDARKAAVAGFLLLLRNFKILGSLTSSQCSQAIGATQVQADVHACYNSAANEAFCLEILGSLRRCLSQQADVRLMLYEGFYDVLRRNSQLASSIMETLLSQIKQYYLPQQDLLPPLKLEGCIMAQGDQIFLQEPLAHLLCCIQHCLAWYKSTVHLCKGAEDEEEEEDVGFEQNFEEMLESVTRRMIKSELEDFELDKSADFSPSSGVGVKNNIYAIQVMGICEVLIEYNFKIGNFSKNKFEDVLGLFTCYNKLSEILKEKAGKNKSTLGNRIARSFLSMGFVSTLLTALFRDNAQSHEESLAVLRSSTEFMRYAVSVALQKVQQLEEMGQTDGPDGQNPEKMFQNLCKITRVLLWRYTSIPTAVEESGKKKGKSISLLCLEGLLRIFNTMQQLYAARIPQFLQALDITDGDAEEADINVTEKAAFQIRQFQRSLVNQLSSAEDDFNSKETQLLITILSTLSKLLDPGSQQFLQFLTWTVKICKENALEDLSCCKGLLTLLFSLHVLYKSPVSLLRELAQDIHACLGDIDQDVEIESRSHFAIVNVKTAAPTVCLLVLGQADKVLEEVDWLIKRLTILGSDTSEDSTQASNQTQALEKGVILQLGTLLTVFHELVQTALPAGSCVDSLLRSLSKTYAILTSLIKHYIQACRSTSNTVPGRLEKLVKLSGSHLTPQCYSFITYVQNIHSESLSFAEEKKKKKKEDETAVVSTVMAKVLRDTKPIPNLIFAIEQYEKFLIHLSKKSKVNLMQYMKLSTSRDFRINASMLDSVLQEQNTEDAENEPDNNQSGTAEQPDENQEPQKKRRRKK
B2: gp20 R295A/K296A (bacteriophage T4, UniProt P13334); sequence looked up; chain MKFNVLSLFAPWAKMDERNFKDQEKEDLVSITAPKLDDGAREFEVSSNEAASPYNAAFQTIFGSYEPGMKTTRELIDTYRNLMNNYEVDNAVSEIVSDAIVYEDDTEVVALNLDKSKFSPKIKNMMLDEFSDVLNHLSFQRKGSDHFRRWYVDSRIFFHKIIDPKRPKEGIKELRRLDPRQVQYVREIITETEAGTKIVKGYKEYFIYDTAHESYACDGRMYEAGTKIKIPKAAVVYAHSGLVDCCGKNIIGYLHRAVKPANQLKLLEDAVVIYRITRAPDRRVWYVDTGNMPAAAAAEHMQHVMNTMKNRVVYDASTGKIKNQQHNMSMTEDYWLQRRDGKAVTEVDTLPGADNTGNMEDIRWFRQALYMALRVPLSRIPQDQQGGVMFDSGTSITRDELTFAKFIRELQHKFEEVFLDPLKTNLLLKGIITEDEWNDEINNIKIEFHRDSYFAELKEAEILERRINMLTMAEPFIGKYISHRTAMKDILQMTDEEIEQEAKQIEEESKEARFQDPDQEQEDF
B3: AXIN1 745-826 Y760D (Homo sapiens, UniProt O15169-2); sequence looked up; chain DSIVVAYYFCGEPIPDRTLVRGRAVTLGQFKELLTKKGSYRYYFKKVSDEFDCGVVFEEVREDEAVLPVFEEKIIGKVEKVD
B4: PAGE4 A18C (Homo sapiens, UniProt O60829); Alexa 555/647 on C18, C63; sequence looked up; chain MSARVRSRSRGRGDGQECPDVVAFVAPGESQQEEPPTDNQDIEPGQEREGTPPIEERKVEGDCQEMDLEKTRSERGDGSDVKEKTPPNPKHAKTKEAGDGQP
B5: UGT1A9 (Homo sapiens, UniProt O60656); chain GKLLVVPMDGSHWFTMRSVVEKLILRGHEVVVVMPEVSWQLGRSLNCTVKTYSTSYTLEDLDREFKAFAHAQWKAQVRSIYSLLMGSYNDIFDLFFSNCRSLFKDKKLVEYLKESSFDAVFLDPFDNCGLIVAKYFSLPSVVFARGILCHYLEEGAQCPAPLSYVPRILLGFSDAMTFKERVRNHIMHLEEHLLCHRFFKNALEIASEILQTPVTEYDLYSHTSIWLLRTDFVLDYPKPVMPNMIFIGGINCHQGKPLPMEFEAYINASGEHGIVVFSLGSMVSEIPEKKAMAIADALGKIPQTVLWRYTGTRPSNLANNTILVKWLPQNDLLGHPMTRAFITHAGSHGVYESICNGVPMVMMPLFGDQMDNAKRMETKGAGVTLNVLEMTSEDLENALKAVINDKSYKENIMRLSSLHKDRPVEPLDLAVFWVEFVMRHKGAPHLRPAAHDLTWYQYHSLDVIGFLLAVVLTVAFITFKCCAYGYRKCLGKKGRVKKAHKSKTH
B6: erenumab; V domains shown; sequence looked up; VH QVQLVESGGGVVQPGRSLRLSCAASGFTFSSFGMHWVRQAPGKGLEWVAVISFDGSIKYSVDSVKGRFTISRDNSKNTLFLQMNSLRAEDTAVYYCARDRLNYYDSSGYYHYKYYGMAVWGQGTTVTVSS; VL QSVLTQPPSVSAAPGQKVTISCSGSSSNIGNNYVSWYQQLPGTAPKLLIYDNNKRPSGIPDRFSGSKSGTSTTLGITGLQTGDEADYYCGTWDSRLSAVVFGGGTKLTVL
B7: GST/UBTF 670-746; dephosphorylated; sequence looked up; chain TLQSKSESEEDDEEDEDDEDEDEEEEDDENGDSSEDGGDSSESSSEDESEDGDENEEDDEDEDDDEDDDEDEDNESE
B8: TNS3 SH2 domain, GST fusion 1172-1282 (Homo sapiens, UniProt Q68CZ2); tyrosine phosphorylated; sequence looked up; chain WYKADISREQAIAMLKDKEPGSFIVRDSHSFRGAYGLAMKVATPPPSVLQLNKKAGDLANELVRHFLIECTPKGVRLKGCSNEPYFGSLTALVCQHSITPLALPCKLLIPE
B9: KIN28/CCL1/TFB3 (yeast); chain 1 MKVNMEYTKEKKVGEGTYAVVYLGCQHSTGRKIAIKEIKTSEFKDGLDMSAIREVKYLQEMQHPNVIELIDIFMAYDNLNLVLEFLPTDLEVVIKDKSILFTPADIKAWMLMTLRGVYHCHRNFILHRDLKPNNLLFSPDGQIKVADFGLARAIPAPHEILTSNVVTRWYRAPELLFGAKHYTSAIDIWSVGVIFAELMLRIPYLPGQNDVDQMEVTFRALGTPTDRDWPEVSSFMTYNKLQIYPPPSRDELRKRFIAASEYALDFMCGMLTMNPQKRWTAVQCLESDYFKELPPPSDPSSIKIRN; chain 2 MTDIQLNGKSTLDTPSATMSAKEKEAKLKSADENNKPPNYKRISDDDLYRHSSQYRMWSYTKDQLQEKRVDTNARAIAYIEENLLKFREAHNLTEEEIKVLEAKAIPLTMEEELDLVNFYAKKVQVIAQHLNLPTEVVATAISFFRRFFLENSVMQIDPKSIVHTTIFLACKSENYFISVDSFAQKAKSTRDSVLKFEFKLLESLKFSLLNHHPYKPLHGFFLDIQNVLYGKVDLNYMGQIYDRCKKRITAALLTDVVYFYTPPQITLATLLIEDEALVTRYLETKFPSREGSQESVPGNEKEEPQNDASTTEKNKEKSTESEEYSIDSAKLLTIIRECKSIIEDCKPPSTEEAKKIAAKNYYCQNPSTLIQKLKRKLNGEDTSSTVEKKQKT; chain 3 MLMDEYEENKDMCPICKTDRYLSPDVKFLVNPECYHRICESCVDRIFSLGPAQCPYKGCDKILRKNKFKTQIFDDVEVEKEVDIRKRVFNVFNKTIDDFNGDLVEYNKYLEEVEDIIYKLDHGIDVAKTEEKLRTYEELNKQLIMNNLERSRTEIESFEQRQKFEKEMKLKKRLLERQIEEEERMNKEWTKKEIVNRLSTTTQDINETIEGVKNTVKLKKSSARRKLEELNRVLKNNPYFNSNVNVQNSRLKDAVPFTPFNGDREAHPRFTLKGSVYNDPFIKDLEHRKEFIASGFNTNYAYERVLTEAFMGLGCVISEEL
Chain of UniProt Q68Y81 (whole entry, unmodified, looked up): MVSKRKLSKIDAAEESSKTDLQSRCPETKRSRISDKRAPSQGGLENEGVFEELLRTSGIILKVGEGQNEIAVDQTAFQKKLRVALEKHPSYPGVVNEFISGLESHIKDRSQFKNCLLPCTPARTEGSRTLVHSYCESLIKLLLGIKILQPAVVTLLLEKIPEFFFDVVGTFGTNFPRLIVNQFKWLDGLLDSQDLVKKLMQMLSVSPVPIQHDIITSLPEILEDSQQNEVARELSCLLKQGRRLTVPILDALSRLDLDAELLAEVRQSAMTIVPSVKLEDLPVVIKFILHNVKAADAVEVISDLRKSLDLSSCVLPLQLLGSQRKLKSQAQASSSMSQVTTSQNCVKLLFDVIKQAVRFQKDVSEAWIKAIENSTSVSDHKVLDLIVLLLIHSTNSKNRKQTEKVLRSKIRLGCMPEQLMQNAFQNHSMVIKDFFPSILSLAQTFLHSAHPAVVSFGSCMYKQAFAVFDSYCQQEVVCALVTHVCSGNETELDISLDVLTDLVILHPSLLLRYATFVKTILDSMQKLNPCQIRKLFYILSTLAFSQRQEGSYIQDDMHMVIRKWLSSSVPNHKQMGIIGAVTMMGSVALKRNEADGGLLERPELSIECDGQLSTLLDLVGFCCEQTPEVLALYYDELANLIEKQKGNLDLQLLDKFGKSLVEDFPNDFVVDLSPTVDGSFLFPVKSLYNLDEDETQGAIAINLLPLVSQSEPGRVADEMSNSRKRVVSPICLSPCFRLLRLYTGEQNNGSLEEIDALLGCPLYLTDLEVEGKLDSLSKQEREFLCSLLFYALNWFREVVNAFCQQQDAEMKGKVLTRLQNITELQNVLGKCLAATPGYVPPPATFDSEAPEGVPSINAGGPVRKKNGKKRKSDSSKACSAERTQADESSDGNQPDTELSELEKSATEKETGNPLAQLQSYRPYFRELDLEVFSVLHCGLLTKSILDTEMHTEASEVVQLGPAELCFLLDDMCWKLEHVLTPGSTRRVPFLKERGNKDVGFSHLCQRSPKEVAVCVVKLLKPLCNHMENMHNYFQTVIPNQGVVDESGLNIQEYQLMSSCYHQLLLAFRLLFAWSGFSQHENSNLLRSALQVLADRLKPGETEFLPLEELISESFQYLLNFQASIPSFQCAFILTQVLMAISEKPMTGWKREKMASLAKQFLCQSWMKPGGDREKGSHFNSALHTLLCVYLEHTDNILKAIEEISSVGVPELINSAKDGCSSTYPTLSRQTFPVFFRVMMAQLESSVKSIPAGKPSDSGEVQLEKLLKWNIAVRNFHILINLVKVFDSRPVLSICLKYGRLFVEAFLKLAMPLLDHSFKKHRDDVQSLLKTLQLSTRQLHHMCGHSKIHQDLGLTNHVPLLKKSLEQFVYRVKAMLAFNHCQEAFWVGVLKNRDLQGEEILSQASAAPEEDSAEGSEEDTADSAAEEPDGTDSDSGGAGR
Chain of UniProt O14641 (whole entry, unmodified, looked up): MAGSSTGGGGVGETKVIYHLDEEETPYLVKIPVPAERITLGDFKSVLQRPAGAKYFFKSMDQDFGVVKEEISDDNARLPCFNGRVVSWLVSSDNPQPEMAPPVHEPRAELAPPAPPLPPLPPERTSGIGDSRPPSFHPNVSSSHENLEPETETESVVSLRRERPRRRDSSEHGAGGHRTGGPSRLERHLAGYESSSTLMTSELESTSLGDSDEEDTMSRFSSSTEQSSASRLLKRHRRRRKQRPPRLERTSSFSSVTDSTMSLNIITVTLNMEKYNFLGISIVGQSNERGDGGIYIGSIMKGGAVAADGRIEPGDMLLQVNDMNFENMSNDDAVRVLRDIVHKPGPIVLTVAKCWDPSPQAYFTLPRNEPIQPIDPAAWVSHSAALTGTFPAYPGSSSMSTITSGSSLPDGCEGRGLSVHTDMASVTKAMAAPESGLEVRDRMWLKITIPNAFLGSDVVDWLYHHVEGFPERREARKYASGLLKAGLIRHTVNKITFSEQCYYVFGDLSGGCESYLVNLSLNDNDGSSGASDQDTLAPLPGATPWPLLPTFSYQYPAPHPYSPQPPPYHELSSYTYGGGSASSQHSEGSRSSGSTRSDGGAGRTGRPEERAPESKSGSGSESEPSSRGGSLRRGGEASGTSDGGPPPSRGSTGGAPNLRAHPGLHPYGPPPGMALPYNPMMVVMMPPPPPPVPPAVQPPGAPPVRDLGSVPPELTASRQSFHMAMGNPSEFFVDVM
Chain of UniProt P05652 (whole entry, looked up): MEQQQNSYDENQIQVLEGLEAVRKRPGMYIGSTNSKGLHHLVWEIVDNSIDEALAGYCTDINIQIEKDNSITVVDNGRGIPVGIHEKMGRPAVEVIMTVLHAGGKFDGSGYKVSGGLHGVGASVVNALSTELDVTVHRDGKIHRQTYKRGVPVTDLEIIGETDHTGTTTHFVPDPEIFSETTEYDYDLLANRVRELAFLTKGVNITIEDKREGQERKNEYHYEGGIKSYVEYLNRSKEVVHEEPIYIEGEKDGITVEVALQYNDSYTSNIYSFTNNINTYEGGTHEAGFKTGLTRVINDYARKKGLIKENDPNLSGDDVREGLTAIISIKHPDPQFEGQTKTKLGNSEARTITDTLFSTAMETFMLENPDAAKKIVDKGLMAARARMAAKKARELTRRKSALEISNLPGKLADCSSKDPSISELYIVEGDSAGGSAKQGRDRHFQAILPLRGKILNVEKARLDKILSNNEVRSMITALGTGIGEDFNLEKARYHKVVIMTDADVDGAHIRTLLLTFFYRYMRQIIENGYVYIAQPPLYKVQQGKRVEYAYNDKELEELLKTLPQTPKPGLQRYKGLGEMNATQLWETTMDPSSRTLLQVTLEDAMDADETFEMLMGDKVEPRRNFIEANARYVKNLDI
Chain of UniProt Q9UK59 (whole entry, looked up): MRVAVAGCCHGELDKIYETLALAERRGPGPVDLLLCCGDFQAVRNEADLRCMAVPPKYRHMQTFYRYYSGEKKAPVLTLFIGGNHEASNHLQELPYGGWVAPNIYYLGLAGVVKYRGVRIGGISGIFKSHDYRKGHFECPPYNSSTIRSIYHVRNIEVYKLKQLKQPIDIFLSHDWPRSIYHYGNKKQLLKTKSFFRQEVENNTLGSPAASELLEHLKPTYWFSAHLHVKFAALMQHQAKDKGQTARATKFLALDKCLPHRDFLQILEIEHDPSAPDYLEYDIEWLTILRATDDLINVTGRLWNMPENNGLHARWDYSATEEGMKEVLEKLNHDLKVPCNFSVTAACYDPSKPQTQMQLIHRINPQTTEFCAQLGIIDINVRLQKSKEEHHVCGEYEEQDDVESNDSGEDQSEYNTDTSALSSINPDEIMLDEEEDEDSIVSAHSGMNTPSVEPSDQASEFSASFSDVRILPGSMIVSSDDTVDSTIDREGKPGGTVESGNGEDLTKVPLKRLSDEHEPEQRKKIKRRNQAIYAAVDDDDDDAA
Chain of UniProt P05653 (whole entry, unmodified, looked up): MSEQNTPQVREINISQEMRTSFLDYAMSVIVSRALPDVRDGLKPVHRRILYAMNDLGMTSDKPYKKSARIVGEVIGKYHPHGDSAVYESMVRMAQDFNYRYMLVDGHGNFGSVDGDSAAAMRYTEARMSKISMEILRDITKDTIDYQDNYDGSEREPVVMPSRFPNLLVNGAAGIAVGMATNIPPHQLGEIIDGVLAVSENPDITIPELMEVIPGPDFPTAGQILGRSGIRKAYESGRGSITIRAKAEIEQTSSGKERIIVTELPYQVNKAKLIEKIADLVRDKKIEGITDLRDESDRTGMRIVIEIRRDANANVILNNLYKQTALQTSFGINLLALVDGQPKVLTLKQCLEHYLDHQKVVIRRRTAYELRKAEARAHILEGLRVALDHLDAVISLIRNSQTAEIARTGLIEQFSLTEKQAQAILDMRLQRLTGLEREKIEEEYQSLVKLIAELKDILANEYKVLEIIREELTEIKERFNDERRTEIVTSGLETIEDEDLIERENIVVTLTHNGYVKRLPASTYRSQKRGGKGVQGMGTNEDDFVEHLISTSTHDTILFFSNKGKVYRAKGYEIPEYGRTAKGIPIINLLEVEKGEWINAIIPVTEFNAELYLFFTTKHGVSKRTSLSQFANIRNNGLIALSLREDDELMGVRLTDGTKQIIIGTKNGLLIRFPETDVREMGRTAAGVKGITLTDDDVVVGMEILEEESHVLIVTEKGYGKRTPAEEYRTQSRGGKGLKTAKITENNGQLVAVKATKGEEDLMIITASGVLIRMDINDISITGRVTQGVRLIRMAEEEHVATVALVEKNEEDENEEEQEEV

Substance	tested on	assay	system	conditions	endpoint	value
BACH1 BTB domain C107A, S-nitrosylation treated (Homo sapiens) (sequence not shown)	FBXL17/SKP1 FBXL17 310-701 (Homo sapiens)	BLI	–	apparent	binding	binds
AKLLGLLAELRSINEA (NR1I3 residues 310-325 (Homo sapiens))	T1, NR1I2/NCOA1 PXR LBD , SRC-1 140-434 (Homo sapiens)	competition with ligand, dynamic light scattering	peptide	–	binding	binds
{GST}-GGDSSESSSEDESEDGDENEEDDEDEDDDEDDDEDEDNESE (GST/UBTF 706-746; dephosphorylated; sequence looked up)	TBP/TAF1A/TAF1B/TAF1C (Homo sapiens)	pull-down	not purified SL1	with or without phosphatase	binding	binds
B1 (FANCI)	FANCD2 K361E/K369E/R399E/K400E/K404E/R407E/K974E (Gallus gallus, UniProt Q68Y81)	SEC	–	–	binding	binds
B2 (gp20 R295A/K296A)	GFP/gp17 fusion (bacteriophage T4)	co-sedimentation	–	30 min, NaCl 100 mM, bound relative to gp23	binding	binds
ORAI1 fragment R91W, fluorescein label (Homo sapiens) (sequence not shown)	Stim1 fragment (Mus musculus)	fluorescence polarisation	–	–	binding	binds
rat amylin	Islet amyloid polypeptide (IAPP, Homo sapiens, UniProt P10997)	ThT fluorescence	–	1 molar equivalents, pH 7.2, 2% HFIP	aggregation lag time	50 min
TPDFLMQLMNDKKLMSSLPNFSGIFNHLERLLDEEISRVRKDMYNDTLNGSTEK (Qki 14-67 C35S/Y17F (Mus musculus, UniProt Q9QYS9))	itself	CD thermal melting	–	50 µM	melting temperature	45 °C
B3 (AXIN1 745-826 Y760D)	DVL2 12-93 V67A/K68A (Homo sapiens, UniProt O14641)	crystal structure	–	–	binding	binds
Ac-WKLLITIHDRKEFAKF-{βAla-βAla-cellulose} (ITGB3 715-730 (Homo sapiens); reading uncertain; also: C-terminus attached to cellulose; N-acetyl, cellulose-bound; βAla = NCCC(=O)O; cellulose = not defined here)	Myom1 fragment (Mus musculus)	peptide array	peptide	3 h, 22 °C	binding	binds
B4 (PAGE4 A18C)	JUN 1-241 (Homo sapiens, UniProt P05412)	single-molecule FRET	–	–	binding	binds
B5 (UGT1A9)	Cc1c(-c2ccccc2)oc2cc(O)ccc2c1=O	steady-state kinetics	–	pH 7.4, 37 °C	Vmax/Km	2010 µL/min/mg
BACH1 BTB domain C34A, S-nitrosylation treated (Homo sapiens) (sequence not shown)	FBXL17/SKP1 FBXL17 310-701 (Homo sapiens)	BLI	–	apparent	binding	binds
DBR1 (Homo sapiens, UniProt Q9UK59)	AQR/XAB2/ISY1/ZNF830/PPIE complex (Homo sapiens)	pull-down	–	–	binding	binds
gyrB (Bacillus subtilis, UniProt P05652)	gyrA heterodimer 2-821 C350L/T140C/K594C, Alexa488 and Alexa546 labels (Bacillus subtilis, UniProt P05653)	smFRET	–	pH 7.5, 37 °C, KCl 100 mM	binding	binds
UBL4A fragment (Homo sapiens) (sequence not shown)	GET4 (Homo sapiens, UniProt Q7L5D6)	pull-down	–	with: ATP 2 mM	binding	binds
B6 (erenumab)	CALCR/RAMP1 on cells (Homo sapiens)	cAMP production, antagonist, global Gaddum-Schild	antibody, HEK293S	with: amylin	pKB	5.74
B7 (GST/UBTF 670-746)	TBP/TAF1A/TAF1B/TAF1C (Homo sapiens)	pull-down	not purified SL1	with or without phosphatase	binding	binds
MSEETKENEGFTVTAEGKGQGTLSVVTMYHAKAKDQLTCNK (C3 1299-1338, C-terminal GST fusion (Homo sapiens, UniProt P01024))	ITGAX 146-332 (Homo sapiens, UniProt P20702)	ELISA	–	with: MgCl2 1 mM	binding	binds
B8	PTK2, pY397 (Homo sapiens, UniProt Q05397)	far-Western	–	phosphorylated, in cells	binding	binds
B9 (KIN28/CCL1/TFB3)	SSL2/RAD3/TFB1/TFB2/SSL1/TFB4/TFB5 core TFIIH (Saccharomyces cerevisiae)	cross-linking	–	–	binding	binds
BRD1 fragment (Homo sapiens) (sequence not shown)	histone H4 (Bos taurus, UniProt P62803)	pull-down	–	–	binding	binds

Some of these lines once more:
Substance	tested on	assay	system	conditions	endpoint	value
gyrB (Bacillus subtilis, UniProt P05652)	gyrA heterodimer 2-821 C350L/T140C/K594C, Alexa488 and Alexa546 labels (Bacillus subtilis, UniProt P05653)	smFRET	–	pH 7.5, 37 °C, KCl 100 mM	binding	binds
UBL4A fragment (Homo sapiens) (sequence not shown)	GET4 (Homo sapiens, UniProt Q7L5D6)	pull-down	–	with: ATP 2 mM	binding	binds
B6 (erenumab)	CALCR/RAMP1 on cells (Homo sapiens)	cAMP production, antagonist, global Gaddum-Schild	antibody, HEK293S	with: amylin	pKB	5.74
